Published values gathered from unrelated publications.
Lines come from different studies, so protocols differ. ≈ marks a conversion by molar mass, not a printed value.
PFF0160c E182D: Dihydroorotate dehydrogenase (quinone), mitochondrial (PFF0160c, Plasmodium falciparum, UniProt Q08210, E182D)
CDKL2: Cyclin-dependent kinase-like 2 (CDKL2, Homo sapiens, UniProt Q92772)
Chain of UniProt Q92772 (whole entry, looked up): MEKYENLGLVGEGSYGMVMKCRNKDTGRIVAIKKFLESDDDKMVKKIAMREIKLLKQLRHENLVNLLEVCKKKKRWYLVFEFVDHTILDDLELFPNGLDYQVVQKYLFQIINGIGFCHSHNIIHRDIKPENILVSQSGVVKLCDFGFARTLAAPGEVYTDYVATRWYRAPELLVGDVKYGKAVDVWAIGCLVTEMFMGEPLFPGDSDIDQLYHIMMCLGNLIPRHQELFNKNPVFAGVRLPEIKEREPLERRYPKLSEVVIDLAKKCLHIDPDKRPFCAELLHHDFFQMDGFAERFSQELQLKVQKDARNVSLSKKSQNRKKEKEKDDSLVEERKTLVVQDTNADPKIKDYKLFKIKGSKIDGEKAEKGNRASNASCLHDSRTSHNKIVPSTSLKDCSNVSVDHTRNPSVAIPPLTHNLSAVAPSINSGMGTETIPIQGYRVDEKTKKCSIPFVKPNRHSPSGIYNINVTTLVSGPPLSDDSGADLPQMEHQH
Chain of UniProt Q9Y2H1 (whole entry, looked up): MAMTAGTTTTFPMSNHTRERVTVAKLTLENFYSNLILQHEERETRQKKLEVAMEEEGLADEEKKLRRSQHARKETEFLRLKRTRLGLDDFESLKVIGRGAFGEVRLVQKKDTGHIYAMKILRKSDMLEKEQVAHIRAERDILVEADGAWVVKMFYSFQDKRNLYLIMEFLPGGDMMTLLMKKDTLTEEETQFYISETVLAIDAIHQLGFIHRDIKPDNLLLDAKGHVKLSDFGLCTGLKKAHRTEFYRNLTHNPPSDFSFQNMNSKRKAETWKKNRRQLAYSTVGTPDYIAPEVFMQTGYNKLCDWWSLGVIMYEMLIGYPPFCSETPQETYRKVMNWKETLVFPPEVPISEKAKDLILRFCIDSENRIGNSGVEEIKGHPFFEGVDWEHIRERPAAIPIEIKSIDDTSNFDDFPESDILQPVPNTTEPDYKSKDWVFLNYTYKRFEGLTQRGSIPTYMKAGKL
Chain of UniProt Q9NRH2 (whole entry, looked up): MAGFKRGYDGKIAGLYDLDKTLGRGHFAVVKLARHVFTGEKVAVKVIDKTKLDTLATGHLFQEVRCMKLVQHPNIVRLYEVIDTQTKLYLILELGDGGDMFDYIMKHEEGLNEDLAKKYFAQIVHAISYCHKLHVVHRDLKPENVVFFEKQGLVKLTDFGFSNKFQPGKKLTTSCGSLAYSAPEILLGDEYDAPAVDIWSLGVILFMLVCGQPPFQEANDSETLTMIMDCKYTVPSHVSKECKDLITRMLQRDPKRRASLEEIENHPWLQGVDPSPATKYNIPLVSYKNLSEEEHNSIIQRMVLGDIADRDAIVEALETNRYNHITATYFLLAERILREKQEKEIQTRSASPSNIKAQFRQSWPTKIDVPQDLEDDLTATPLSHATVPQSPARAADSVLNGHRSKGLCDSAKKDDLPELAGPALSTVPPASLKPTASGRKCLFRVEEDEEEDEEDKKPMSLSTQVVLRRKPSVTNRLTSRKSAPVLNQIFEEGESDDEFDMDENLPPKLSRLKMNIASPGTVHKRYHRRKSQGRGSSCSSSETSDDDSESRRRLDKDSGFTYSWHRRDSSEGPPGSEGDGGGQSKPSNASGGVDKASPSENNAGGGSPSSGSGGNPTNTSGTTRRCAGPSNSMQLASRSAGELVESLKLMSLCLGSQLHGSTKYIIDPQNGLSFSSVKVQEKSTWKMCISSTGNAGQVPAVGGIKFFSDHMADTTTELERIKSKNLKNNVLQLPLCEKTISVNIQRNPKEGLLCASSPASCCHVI
Chain of UniProt Q9P1W9 (whole entry, looked up): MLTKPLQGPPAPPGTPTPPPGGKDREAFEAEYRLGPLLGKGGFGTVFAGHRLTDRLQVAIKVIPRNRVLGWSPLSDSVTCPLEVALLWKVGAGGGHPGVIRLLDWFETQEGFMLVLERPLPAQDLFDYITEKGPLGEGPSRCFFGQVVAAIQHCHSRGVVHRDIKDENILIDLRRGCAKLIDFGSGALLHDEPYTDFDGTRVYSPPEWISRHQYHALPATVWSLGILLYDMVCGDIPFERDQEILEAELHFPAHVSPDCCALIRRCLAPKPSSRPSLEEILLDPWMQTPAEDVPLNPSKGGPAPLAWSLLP

SMILES	target or system	assay	test system	setting	quantity	value
CCOC(=O)C1=C[C@@H](OC(CC)CC)[C@H](NC(C)=O)[C@@H](N)C1	Human coronavirus 229E	cytopathic effect	A549	100 µM	inhibition	82%
COC(=O)c1cc(-c2cccc(NC(=O)Nc3ccc(C)c(Cl)c3)c2)on1	Mycolicibacterium fortuitum	microbial growth, broth dilution	ATCC6841	48 h	MIC	> 64 µg/mL
CC(Oc1cccc(Cl)c1)C(=O)N1CCc2ccccc21 (centres unmarked)	PFF0160c E182D	enzyme activity, inhibitor, absorbance			IC50	0.111 µM
O=c1cc(OCCCOc2ccnc(SCc3ccc(F)cc3)n2)c2cc(F)ccc2o1	Human coronavirus 229E	cytopathic effect	A549	1.56 µM	inhibition	8.05%
O=c1cc(CSc2ccc(N=Cc3ccccc3F)cc2)occ1O		DPPH scavenging, absorbance		30 min	IC50	52.2 µM
COc1ncccc1-c1cnn2ccc(N3CCN(C(=O)OC(C)C)CC3)nc12	SNRK (Homo sapiens, UniProt Q9NRH2)	binding, competition with immobilised ligand		1 µM	remaining binding	100%
N=C(N)c1ccc(OCc2cc(COc3ccc(C(=N)N)cc3)cc(-c3ccccc3)c2)cc1	Escherichia coli	microbial growth, broth dilution	BW25113		MIC	100 µg/mL (≈ 222 µM)
Cc1ccc2c(CNCC3(N4CCCC4)COC3)c[nH]c2c1	A 172	cell growth or viability		30 µM, 48 h	viability	55.6%
COc1ccc(-c2ccc3c(N)c(C(=O)Nc4cccc(C)c4C)sc3n2)cc1	Mycobacterium tuberculosis	microbial growth	H37RV		IC50	> 100 µM
C#Cc1n[nH]c2c(-c3cn([C@@H](C)c4ccccn4)c(=O)[nH]c3=O)cc(F)cc12	PIM2 (Homo sapiens, UniProt Q9P1W9)	enzyme activity, inhibitor		0.1 µM	inhibition	4.5%
OC(Cn1cncn1)(Cn1cncn1)c1ccc(F)cc1F	Candida tropicalis	microbial killing, broth dilution	CGMCC2	48 h	MFC	32 µM
COC(=O)c1cc(-c2cccc(NC(=O)Nc3ccccc3OC)c2)on1	Klebsiella pneumoniae	microbial growth, broth dilution	BAA1705		MIC	> 64 µg/mL
COc1ccc(-c2cc(C(F)(F)F)c3c(N)c(C(=O)NC4CC5(C4)CN(C(=O)OC(C)(C)C)C5)sc3n2)cc1	Mycobacterium tuberculosis	microbial growth	H37RV		IC50	> 50 µM
C#Cc1cccc(C=NNC(=O)c2ccc(Br)c(Br)c2)c1O	Candida albicans	microbial growth		pH 7.4	MIC80	0.5 µg/mL (≈ 1.18 µM)
[2H]c1c([2H])c([C@]2([2H])CCCN2C(=O)C(C)(C)Oc2ccc3cn[nH]c3c2)c([2H])c([2H])c1C([2H])([2H])[2H]	STK38L (Homo sapiens, UniProt Q9Y2H1)	binding, competition with immobilised ligand		1 µM	remaining binding	94%
CC(C)C[C@H](NC(=O)[C@H](Cc1ccccc1)NC(=O)[C@H](Cc1ccccc1)NC(=O)Cc1ccc(-c2ccccc2)cc1)C(=O)N[C@@H](CCCCN)C(=O)N[C@@H](CCCNC(=N)N)C(=O)N[C@H](C(=O)N[C@@H](Cc1c[nH]c2ccccc12)C(=O)N[C@@H](CCCCN)C(=O)N[C@@H](CCCNC(=N)N)C(=O)O)C(C)C		metabolic stability, mass spectrometry	mouse, liver microsomes	5 min	compound remaining	42.4%
O=c1cc(CSc2ccc(N=Cc3ccc(Cl)cc3)cc2)occ1O		DPPH scavenging, absorbance		30 min	IC50	40.8 µM
N.N.[Cl][Pt][Cl]	SUP-B15	cell growth or viability, ATP luminescence		72 h	IC50	1.67 µM
COC(=O)c1cc(-c2cccc(NC(=S)Nc3cccc(Br)c3)c2)on1	Pseudomonas aeruginosa	microbial growth, broth dilution	ATCC27853		MIC	> 64 µg/mL
Cc1nn(C)cc1-c1nc2c(N3CCN(Cc4ccc(Cl)cc4)CC3)c(Cl)cnc2[nH]1	CDKL2	binding, competition with immobilised ligand		1 µM	remaining binding	29%
COC(=O)c1cc(-c2cccc(NC(=S)Nc3ccc(F)cc3F)c2)on1	Mycolicibacterium fortuitum	microbial growth, broth dilution	ATCC6841	48 h	MIC	16 µg/mL (≈ 41.1 µM)
CN1C(=O)C(C2C3=C(CC(C)(C)CC3=O)Oc3c(O)cccc32)C(=O)N(C)C1=O (centres unmarked)	3T3-L1	cell growth or viability, MTT		72 h	IC20	27.4 µg/mL (≈ 68.8 µM)
Nc1ncnc2c([C@@H]3N[C@H](CO)[C@@H](O)[C@H]3O)c[nH]c12	unidentified influenza virus	viral replication, inhibitor	MDCK	0.3 µM	inhibition	0%
COc1ccc(-c2cc(C(F)(F)F)c3c(N)c(C(=O)Nc4cccc(C)c4C)sc3n2)cn1	Mycobacterium tuberculosis	microbial growth	H37RV		IC50	1 µM

SMILES	target or system	assay	test system	setting	quantity	value
COC(=O)c1cc(-c2cccc(NC(=S)Nc3ccc(C)cc3)c2)on1	Pseudomonas aeruginosa	microbial growth, broth dilution	ATCC27853		MIC	> 64 µg/mL
COc1ccc(-c2cc(C(F)(F)F)c3c(N)c(C(=O)NC4CC4)sc3n2)cc1	Mycobacterium tuberculosis	microbial growth	H37RV		IC50	> 100 µM
Cc1nc2ccccc2n1[C@@H]1C[C@H]2CC[C@@H](C1)N2Cc1nccn1-c1ccccc1	PFF0160c E182D	enzyme activity, inhibitor, absorbance			IC50	2.98 µM
COc1cnc(OC)n2nc(NS(=O)(=O)c3c(OCC(F)F)cccc3C(F)(F)F)nc12	HaCaT	cell growth or viability, CCK-8		12.5 µM, 72 h	inhibition	0.54%
Cc1ccccc1C=Nc1ccc(SCc2cc(=O)c(O)co2)cc1		DPPH scavenging, absorbance		30 min	IC50	21 µM
CC[C@H](C)[C@H](NC(=O)[C@H](Cc1ccccc1)NC(=O)[C@H](CCC(=O)O)NC(=O)[C@H](CCCNC(=N)N)NC(=O)[C@H](C)NC(=O)[C@H](C)NC(=O)[C@H](CCC(N)=O)NC(=O)[C@H](CCC(=O)O)NC(=O)[C@H](CCC(=O)O)NC(=O)[C@H](CC(C)C)NC(=O)[C@H](Cc1ccc(O)cc1)NC(=O)[C@H](CO)NC(=O)[C@H](CO)NC(=O)[C@@H](NC(=O)[C@H](CC(=O)O)NC(=O)[C@H](CO)NC(=O)[C@@H](NC(=O)[C@H](Cc1ccccc1)NC(=O)[C@@H](NC(=O)CNC(=O)[C@H](CCC(=O)O)NC(=O)[C@H](C)NC(=O)CCc1c[nH]cn1)[C@@H](C)O)[C@@H](C)O)C(C)C)C(=O)N[C@@H](C)C(=O)N[C@@H](Cc1c[nH]c2ccccc12)C(=O)N[C@@H](CC(C)C)C(=O)N[C@H](C(=O)N[C@@H](CCCNC(=N)N)C(=O)NCC(=O)N[C@@H](CCCNC(=N)N)C(=O)N[C@@H](CCCCNC(=O)COCCOCCNC(=O)COCCOCCNC(=O)CC[C@H](NC(=O)CCCCCCCCCCCCCCCCC(=O)O)C(=O)O)C(=O)NCC(=O)NCC(=O)N[C@@H](CO)C(=O)N[C@@H](CCCCNc1c(NCCCCCN(O)C(=O)CCC(=O)NCCCCCN(O)C(=O)CCC(=O)NCCCCCN(O)C(C)=O)c(=O)c1=O)C(=O)O)C(C)C			rat, plasma	subcutaneous, 20 nmol/kg	Tmax	8 h
COc1ccc(-c2ccc3c(N)c(C(=O)N4CCOCC4)sc3n2)cc1OC	Mycobacterium tuberculosis	microbial growth	H37RV		IC50	62 µM
C#Cc1ccc(C=NNC(=O)c2ccc(COC(C)C)cc2)c(O)c1	Candida albicans	microbial growth		pH 7.4	MIC80	1 µg/mL (≈ 2.97 µM)
COC(=O)c1cc(-c2cccc(NC(=S)Nc3cccc(Cl)c3)c2)on1	Mycobacteroides chelonae	microbial growth, broth dilution	ATCC35752	48 h	MIC	> 64 µg/mL
COc1ccc(-c2cc(C(F)(F)F)c3c(N)c(C(=O)N4CCCCC4)sc3n2)cc1	Mycobacterium tuberculosis	microbial growth	H37RV		IC50	> 100 µM
CCCCCCNC(=S)Nc1cccc(-c2cc(C(=O)OC)no2)c1	Klebsiella pneumoniae	microbial growth, broth dilution	BAA1705		MIC	> 64 µg/mL
Nc1ncc(-c2nc(N3CCOCC3)nc(N3CCOCC3)n2)c(C(F)F)n1	CDKL2	binding, competition with immobilised ligand		10 µM	remaining binding	99%
N.N.[Cl][Pt][Cl]	MCF7	cell growth or viability, MTT			GI50	4.63 µM
C#Cc1ccc(C(=O)NN=Cc2ccc(C#C)cc2O)cc1	Candida albicans	microbial growth		pH 7.4	MIC80	16 µg/mL (≈ 55.5 µM)
COC(=O)c1cc(-c2cccc(NC(=O)Nc3cc(OC)ccc3OC)c2)on1	Mycolicibacterium fortuitum	microbial growth, broth dilution	ATCC6841	48 h	MIC	> 64 µg/mL
C#Cc1cccc(C=NNC(=O)c2ccc(Br)cc2)c1O	Cryptococcus neoformans	microbial growth, broth dilution		pH 7.4	MIC80	0.007 µg/mL (≈ 0.0204 µM)
Nc1c(C(=O)N2CC(F)(F)C2)sc2ncccc12	Mycobacterium tuberculosis	microbial growth	H37RV		IC50	> 100 µM
O=c1cc(CSc2ccc(N=Cc3cccc(Br)c3)cc2)occ1O		DPPH scavenging, absorbance		30 min	IC50	124 µM
C#Cc1ccc(O)c(C=NNC(=O)c2ccc(Br)c(Br)c2)c1	Cryptococcus neoformans	microbial killing			MFC	0.5 µg/mL
COc1cc(CCNC(C)c2ccccc2O)c(OC)cc1C#N (centres unmarked)	HTR2A (Homo sapiens, UniProt P28223)	β-arrestin recruitment, agonist			Emax	108%
CN(C)C(=O)c1sc2ncccc2c1N	Mycobacterium tuberculosis	microbial growth	H37RV		IC50	> 100 µM
C#Cc1ccc(C=NNC(=O)c2ccc(Br)c(Br)c2)c(O)c1	Candida albicans	microbial growth		pH 7.4	MIC80	8 µg/mL (≈ 19 µM)
O=c1cc(CSc2ccc(N=Cc3ccccc3Cl)cc2)occ1O		DPPH scavenging, absorbance		30 min	IC50	88.1 µM

Some of these lines once more:
SMILES	target or system	assay	test system	setting	quantity	value
COC(=O)c1cc(-c2cccc(NC(=O)Nc3cc(OC)ccc3OC)c2)on1	Mycolicibacterium fortuitum	microbial growth, broth dilution	ATCC6841	48 h	MIC	> 64 µg/mL
COC(=O)c1cc(-c2cccc(NC(=S)Nc3cccc(Br)c3)c2)on1	Pseudomonas aeruginosa	microbial growth, broth dilution	ATCC27853		MIC	> 64 µg/mL
COc1ccc(-c2cc(C(F)(F)F)c3c(N)c(C(=O)Nc4cccc(C)c4C)sc3n2)cn1	Mycobacterium tuberculosis	microbial growth	H37RV		IC50	1 µM
